{"data": "Assay results collected from several papers", "note": "Numbered parts are unrelated; each lists some results of a single study. Several values in a cell are separate wells, animals, samples, runs or records.", "sequence of UniProt Q9UEE5 (whole entry, looked up)": "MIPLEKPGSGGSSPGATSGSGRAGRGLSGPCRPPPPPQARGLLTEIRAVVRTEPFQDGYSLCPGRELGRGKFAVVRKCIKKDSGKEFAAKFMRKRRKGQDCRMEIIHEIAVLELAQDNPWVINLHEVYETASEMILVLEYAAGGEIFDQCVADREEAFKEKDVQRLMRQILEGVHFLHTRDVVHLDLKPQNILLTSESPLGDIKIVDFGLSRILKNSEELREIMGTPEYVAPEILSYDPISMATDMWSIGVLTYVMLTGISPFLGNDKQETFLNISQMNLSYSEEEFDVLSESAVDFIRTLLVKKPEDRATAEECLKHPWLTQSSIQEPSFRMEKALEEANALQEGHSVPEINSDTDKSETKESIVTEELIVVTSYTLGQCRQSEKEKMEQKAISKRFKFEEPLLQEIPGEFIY", "sequence of UniProt Q14164 (whole entry, looked up)": "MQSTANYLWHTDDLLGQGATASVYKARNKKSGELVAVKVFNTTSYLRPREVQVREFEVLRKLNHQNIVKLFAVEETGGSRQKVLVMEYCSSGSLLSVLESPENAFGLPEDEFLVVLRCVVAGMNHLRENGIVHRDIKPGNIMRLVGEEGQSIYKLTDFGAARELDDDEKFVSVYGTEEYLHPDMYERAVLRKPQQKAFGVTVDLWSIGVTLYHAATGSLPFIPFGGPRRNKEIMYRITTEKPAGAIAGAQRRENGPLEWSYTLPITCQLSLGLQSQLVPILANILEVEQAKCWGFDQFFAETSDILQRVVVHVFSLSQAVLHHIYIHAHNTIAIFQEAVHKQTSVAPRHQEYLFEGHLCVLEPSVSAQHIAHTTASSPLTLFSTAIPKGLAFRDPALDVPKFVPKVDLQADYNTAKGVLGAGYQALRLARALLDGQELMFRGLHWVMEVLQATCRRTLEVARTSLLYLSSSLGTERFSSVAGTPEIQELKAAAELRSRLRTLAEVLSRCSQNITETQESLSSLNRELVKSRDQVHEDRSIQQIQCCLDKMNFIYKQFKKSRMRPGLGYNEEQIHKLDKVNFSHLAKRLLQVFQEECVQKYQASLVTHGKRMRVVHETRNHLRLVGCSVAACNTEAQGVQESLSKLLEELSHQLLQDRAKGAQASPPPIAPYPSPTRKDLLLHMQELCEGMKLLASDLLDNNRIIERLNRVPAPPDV"}
{"data": "Set 1", "cell line": "mouse MPNST tumor cells", "method": "high-content nuclear imaging", "measured": "cell number", "tested at": "10 µM", "time": "12 h", "setting": "mean of 2 replicates", "relative to": "plate mean", "reading": "higher = more cells"}
{"SMILES": "CCCn1c(=O)[nH]c2nc(-c3ccc(S(=O)(=O)N4CCN(Cc5ccc(Cl)cc5)CC4)cc3)[nH]c2c1=O", "nuclei count": "0.463 z-score"}
{"SMILES": "CCOC(Cn1nc(-c2ccc3oc(N)nc3c2)c2c(N)ncnc21)OCC", "nuclei count": "-1.65 z-score"}
{"SMILES": "c1ccc([C@@H]2CCC[C@@H]2NC2=NCCCCCCCCCCC2)cc1", "nuclei count": "-6.23 z-score"}
{"SMILES": "CN1CCCN=C1/C=C/c1cccs1", "nuclei count": "-0.495 z-score"}
{"SMILES": "c1ccc2c(CC3=NCCN3)cccc2c1", "nuclei count": "0.918 z-score"}
{"SMILES": "CN1CCN2c3ncccc3Cc3ccccc3C2C1 (stereo not drawn)", "nuclei count": "0.0448 z-score and 0.474 z-score"}
{"SMILES": "c1ccc(C(NCc2cccnc2)(c2ccccc2)c2ccccc2)cc1", "nuclei count": "-0.623 z-score"}
{"SMILES": "Cc1cc(NC(=O)C2=C(O)c3ccccc3S(=O)(=O)N2C)no1", "nuclei count": "-0.0637 z-score"}
{"SMILES": "COc1ccnc(C[S+]([O-])c2nc3cc(OC(F)F)ccc3[nH]2)c1OC (stereo not drawn)", "nuclei count": "-0.425 z-score"}
{"data": "Set 2", "target": "NUAK family SNF1-like kinase 2 (NUAK2, Homo sapiens, UniProt Q9H093)", "observed": "enzyme activity", "mode": "inhibitor", "tested at": "0.5 µM", "relative to": "control", "sequence of UniProt Q9H093 (whole entry, looked up)": "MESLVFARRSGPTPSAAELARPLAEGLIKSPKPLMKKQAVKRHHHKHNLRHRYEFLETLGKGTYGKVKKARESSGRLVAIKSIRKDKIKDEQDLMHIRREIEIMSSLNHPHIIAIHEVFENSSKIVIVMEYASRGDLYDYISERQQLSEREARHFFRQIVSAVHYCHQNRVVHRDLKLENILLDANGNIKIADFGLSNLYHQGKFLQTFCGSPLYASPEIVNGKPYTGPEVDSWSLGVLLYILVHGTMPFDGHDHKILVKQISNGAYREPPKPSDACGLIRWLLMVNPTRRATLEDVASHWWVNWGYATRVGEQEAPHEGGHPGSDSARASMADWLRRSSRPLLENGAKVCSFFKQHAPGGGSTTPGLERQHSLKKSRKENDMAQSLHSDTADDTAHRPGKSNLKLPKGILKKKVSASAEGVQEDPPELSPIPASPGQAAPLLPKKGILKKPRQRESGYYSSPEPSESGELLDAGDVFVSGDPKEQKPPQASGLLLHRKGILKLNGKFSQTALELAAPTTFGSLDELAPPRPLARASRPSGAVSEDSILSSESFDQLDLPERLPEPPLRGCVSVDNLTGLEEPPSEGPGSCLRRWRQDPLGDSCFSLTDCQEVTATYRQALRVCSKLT"}
{"Compound": "CC(C)N(CCC(=O)c1ccc2ccccc2c1)Cc1ccccc1", "remaining activity [%]": 85.4}
{"Compound": "O=C(O)/C=C/c1cc(Br)c(Br)c(Br)c1Br", "remaining activity [%]": 98.9}
{"Compound": "c1cc(-c2cnn3cc(-c4ccc(OCCN5CCCCC5)cc4)cnc23)ccn1", "remaining activity [%]": 82}
{"Compound": "FC(F)(F)c1ccc(/C=C/c2nc(COc3ccc(CCCCn4ccnn4)cc3)co2)cc1", "remaining activity [%]": 101}
{"Compound": "Nc1nc(Nc2ccc(S(N)(=O)=O)cc2)nn1C(=S)Nc1c(F)cccc1F", "remaining activity [%]": 9.73}
{"Compound": "COc1cc2c(Nc3ccc(Br)cc3F)ncnc2cc1OCC1CCN(C)CC1", "remaining activity [%]": 100}
{"Compound": "O=C1c2ccccc2-c2nc3nnnn3nc21", "remaining activity [%]": 92.5}
{"Compound": "O=C1NC(=O)/C(=C/c2ccc3c(c2)OC(F)(F)O3)S1", "remaining activity [%]": 74.8}
{"data": "Set 3", "observed": "AlphaScreen signal", "method": "AlphaScreen counter screen", "matrix": "His6 peptide without bromodomain", "tested at": "50 µM", "setting": "assay interference check"}
{"Compound": "Oc1cccc(-c2nc(N3CCOCC3)c3sccc3n2)c1", "inhibition [%]": 54.6}
{"Compound": "Nc1cccc(-c2cc3c(Oc4cccc(O)c4)ncnc3[nH]2)c1", "inhibition [%]": 12.5}
{"Compound": "CN(C)CC1CCn2c(c(C3=C(c4cn(C)c5ccccc45)C(=O)NC3=O)c3ccccc32)C1.Cl (stereo not drawn)", "inhibition [%]": 86.3}
{"Compound": "CCc1cnn2c(NCc3ccc[n+]([O-])c3)cc(N3CCCC[C@H]3CCO)nc12", "inhibition [%]": 10}
{"Compound": "N#CC(=Cc1ccncc1)c1nc(-c2ccccc2)cs1", "inhibition [%]": 16.8}
{"Compound": "O=C(Nc1cc(Cl)ccc1C(=O)O)c1ccc2c(c1)C(=O)N(Cc1cccnc1)C2=O", "inhibition [%]": 7.3}
{"Compound": "CC(CCl)=C(C#N)c1nc2ccccc2s1", "inhibition [%]": 24.8}
{"data": "Set 4", "SMILES": "C[C@H](c1ccnc(Nc2nc3ccc(-c4cc(N(C)C)ncn4)cc3[nH]2)c1)N1CCN(C(=O)CC(F)(F)F)CC1", "observed": "target engagement", "method": "NanoBRET", "matrix": "live cells"}
{"target": "STK17A (Homo sapiens, UniProt Q9UEE5)", "EC50": "1.44 µM and 9.49 µM and 3.46 µM"}
{"target": "FLT3 (Homo sapiens, UniProt P36888)", "EC50": "15.7 µM and 31.2 µM"}
{"target": "IKBKE (Homo sapiens, UniProt Q14164)", "EC50": "0.176 µM"}
